Results from different studies.
Every numbered part comes from another study and shows a few of its results, in no order.

Set 1
Target: RING finger protein unkempt homolog, zinc fingers 1-6, SBP tag (UNK, Homo sapiens, UniProt Q9C0B0, residues 30-357)
Chain of UniProt Q9C0B0 (30-357, looked up): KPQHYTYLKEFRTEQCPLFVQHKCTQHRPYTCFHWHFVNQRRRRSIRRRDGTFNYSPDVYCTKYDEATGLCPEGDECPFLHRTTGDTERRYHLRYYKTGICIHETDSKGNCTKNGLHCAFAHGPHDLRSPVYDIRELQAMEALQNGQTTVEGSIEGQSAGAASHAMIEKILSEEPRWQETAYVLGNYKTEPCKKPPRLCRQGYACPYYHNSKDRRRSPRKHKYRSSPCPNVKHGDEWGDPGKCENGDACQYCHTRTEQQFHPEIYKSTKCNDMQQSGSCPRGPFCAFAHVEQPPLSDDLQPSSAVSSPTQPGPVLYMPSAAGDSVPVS
Technique: RNA Bind-n-Seq
Form: RNA
Matrix: in vitro
Concentration: 100 nM
Setting: RNA with constant flanks, vertebrate orthologous sites, ends assumed
Relative to: input RNA pool
Direction: higher = stronger binding
Shared flanks, not repeated: GGGAGUUCUACAGUCCGACGAUC … CAACAGAGGAUUGAGCAUCA
Sequence	bound/input enrichment
GUGCAAGGAGAUUAUUCCAACUAGUGAAUUUAUUAACAGUAAGUUAACAGCAAAAGCAAAUAGGCAGCUUCAAGAUCCUUUAGUAAUCAUGACAGGAAACAUCCCAACAUGGCUUACUGA	1.03 ratio
GAGGUAUUGAAUAGUAUUAAAGAAACUUACUCGUCUUCCUUUAUCUUUUGUCCCGAUACCUAGUCUACUUUUUAAAAUUUCAAACUUCACUGCUCUUUGAAUUGAUGAUUCCAGUUUUCA	1.05 ratio
CCCCGUUUUUAAAUGCCCUUUUGAUGCUCCCAGCAGCACCAUUUGUACAGUUUUUCUCUAAAAACAAAAAUGUUGAUUCGAAUUUCUUGUAUUUAAGUUUAAAUUGUUACAACAUUUUAG	0.189 ratio
AUGGCACCCCCUGUGAGAGGGAGUGGGGGAAGCCCAAGAUGACCCUCAGUUGUUCCAAUCCAGUAUUUUUUCCUUUAAAAAAAAAUUACUGUAUUUAUUAUGACGAUGGUGACUCCCCAA	0.218 ratio
UGAAAGUUACAGACAAGAGUCUGAAAGUAGAAAUACAGGAUCCUGGUUAUCAUCAUCUCUACGAAACAGAUGUACACCUCUGUUCUCCAGAAGGCGGCGAGAAGGAAGAGAUGAAUCUGC	0.174 ratio
GAGCGCUGCCAGUGCGUAUCCACAACACUGGGUGCAAAGUAGUAAUUCCACACCCACAGUAAGGUAGUUUCAGGGCAGUGUUGCUGUGGUUCUCUCUUGGGCAGGUUCUGAAAAUGUACA	1.59 ratio
GAAAAUGACGACCACAUAUCACCUCAGUGAGGUGAAGUCUCCUUGGCAUUUGGUUCGUUUUAACGCCAGUGAUUCCUGACAAGUCUUCAUGGGCAUUCACACUCAAAGUCAUCUUUUGAA	0.424 ratio
CGGCUAACUCCCUGAUUGGCCGGGCUGCCCACAUCGCUGUGCUCGAUUCUGAGAUCUUCCUGGAGAAGUUCUUCCUUGUUGCAGGCCUCAGGUUCUUUCAGUAGAACAGCAGCAUAAAUA	0.258 ratio

Set 2
Target: RNA binding protein fox-1 homolog 2, RRM domain, GST-SBP tag (RBFOX2, Homo sapiens, UniProt O43251-10, residues 100-194)
Technique: RNA Bind-n-Seq
Form: RNA
Matrix: in vitro
Concentration: 365 nM
Setting: natural RNA segment, single round, ends assumed
Relative to: no-protein control
Direction: higher = stronger binding
Shared flanks, not repeated: GGGAGUUCUACAGUCCGACGAUC … UGGAAUUCUCGGGUGCCAA
Construct (chain): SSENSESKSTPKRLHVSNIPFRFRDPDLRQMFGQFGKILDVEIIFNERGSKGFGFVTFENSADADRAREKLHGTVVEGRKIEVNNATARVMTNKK
Sequence	RBNS enrichment (R)
ACCCCUUGCAAGCCCACGGGGCUUCCUGGGUGGGAGGAAGAGGGUUCAGGCACUUCCCACCACCUUUGUGCCCCCUCUGGUUGUACUUUCCAGGUCCCUGCUUCUCACCU	0.27
CUGCUUCUGGAAGGGCUAUCCUGGGGGUGAACUUGAAACUCUCAUCAGGCUUCUGCAAAAGCUCUUCUUCCUGAAGACAGACCCAGCCUUUGUGCUCUCACCCUCCACUC	0.325
UUCCCUGGACUGAGCUCAGCGCAGGCUGUGACCCCAGGAGGGCCCUGCCACGGGCCACUGGCUGCUGGGGACUGGGGACUGGGCAGAGACUGAGCCAGGCAGGAAGGCAG	0.242
UGGAACCUUGAGGCUAGUUAGUAUCACACUCAGGCCACACUCAGCACUUGCCCACUCUUGUUUACUGCCUUGUAUUCUAGUUAUUUGUGUAUUUGUCUCCCUCACUAGAU	0.948
AGCAAGCUACAAAGAGGGUGUGUCACACUGAAACUCAAUAGUUGAGUUUGGCUGUUGUUGCAGGAAAAUGAUUAUAACUAAAAGCUCUCUGAUAGUGCAGAGACUUACCA	0.38
GUGGAACCAUAAAGUCCCCAUCUCAAAGUGUGCCUGUGGGACAGGGUUAGUAGCUACUCCCCGAGGCCCCAACCCGGGAAAUACUGCAGUGUUCCUUCCUGCAGGCCUUG	0.374
UUUGGGACCUCGAGGGGACAGCAAGAGAGAAUGAGAGAGGAGCUCCAAUGUGAGCUUUUCGUUCUUAUACAUUUAAUUUCGGGUGAUGUUGGCCAGAGGUAUCUGGGAGA	0.511
UUUGAAACAAAGCUGUACGGUUUGAUCGAUGAACGUAUUUAAAGCAUUUCAUGCAAUGACAAAGUGCUCAGUAGUGGAAGGCAGGCUGUGACCAGUCUGCCUGCUCCUUA	0.354

Set 3
Target: Sal-like protein 4, full length isoform A (SALL4, Homo sapiens, UniProt Q9UJQ4, residues 1-1053)
Chain of UniProt Q9UJQ4 (whole entry, looked up): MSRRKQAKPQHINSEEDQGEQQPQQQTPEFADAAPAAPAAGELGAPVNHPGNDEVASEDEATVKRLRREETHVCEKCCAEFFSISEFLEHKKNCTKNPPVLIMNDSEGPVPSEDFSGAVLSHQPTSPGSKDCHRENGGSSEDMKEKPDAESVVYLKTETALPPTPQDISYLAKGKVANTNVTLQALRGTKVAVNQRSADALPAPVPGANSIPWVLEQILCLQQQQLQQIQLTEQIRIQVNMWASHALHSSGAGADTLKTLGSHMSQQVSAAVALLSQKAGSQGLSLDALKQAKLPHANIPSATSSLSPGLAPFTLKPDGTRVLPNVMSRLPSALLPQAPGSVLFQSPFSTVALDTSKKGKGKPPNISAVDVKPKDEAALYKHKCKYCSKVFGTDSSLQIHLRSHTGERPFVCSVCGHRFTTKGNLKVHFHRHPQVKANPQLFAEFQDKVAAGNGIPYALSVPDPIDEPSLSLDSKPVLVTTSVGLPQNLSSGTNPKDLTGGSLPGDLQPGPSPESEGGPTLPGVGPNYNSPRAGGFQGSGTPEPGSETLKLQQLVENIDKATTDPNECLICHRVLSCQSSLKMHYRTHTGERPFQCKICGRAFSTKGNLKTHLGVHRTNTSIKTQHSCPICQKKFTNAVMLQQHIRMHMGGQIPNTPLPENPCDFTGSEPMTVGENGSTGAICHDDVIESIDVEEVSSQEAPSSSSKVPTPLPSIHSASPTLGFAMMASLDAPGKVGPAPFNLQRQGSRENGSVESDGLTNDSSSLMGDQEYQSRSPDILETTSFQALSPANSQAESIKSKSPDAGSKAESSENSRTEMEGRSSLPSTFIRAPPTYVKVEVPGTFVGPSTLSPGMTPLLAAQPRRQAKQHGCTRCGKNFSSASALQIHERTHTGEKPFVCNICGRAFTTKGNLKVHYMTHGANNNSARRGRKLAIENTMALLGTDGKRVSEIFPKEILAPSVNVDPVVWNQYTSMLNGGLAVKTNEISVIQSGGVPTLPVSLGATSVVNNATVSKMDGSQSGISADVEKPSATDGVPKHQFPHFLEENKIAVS
Technique: universal PBM
Form: double-stranded DNA, one strand shown
Matrix: in vitro
Concentration: 600 nM
Setting: 8-mer, flanks averaged, mean of replicates
Direction: higher = stronger binding
Sequence	E-score
AAGGCTAA	0.0309
GTAACGCA	0.0689
GGCCACGA	-0.258
GGACTCAA	-0.217
CAATTGGC	0.139
CGGTATTA	0.125
TCCTGGAA	-0.161
AATCCGGT	-0.14
ATCTTACA	0.164
GACTCAAA	0.042
GGCATTCA	-0.046
AAAGGTGT	-0.05
AGGACACC	-0.221
CATCACGC	-0.139
ATGGTGAC	-0.024
AAGCAAGA	0.139
ATGACCAC	-0.0375
CCATCAAC	0.18

Set 4
Target: Histone acetyltransferase KAT6A, winged helix 2, GST fusion (KAT6A, Homo sapiens, UniProt Q92794, residues 85-181)
Technique: protein binding microarray
Form: double-stranded DNA, one strand shown
Matrix: in vitro
Concentration: not given
Setting: 8-mer, flanks averaged, mean of 2 arrays, mostly near background
Relative to: not given
Direction: higher = stronger binding
Target sequence (chain): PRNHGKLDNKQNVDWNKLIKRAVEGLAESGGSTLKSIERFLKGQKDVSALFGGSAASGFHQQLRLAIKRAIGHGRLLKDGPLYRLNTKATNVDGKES
Sequence	E-score
CCCATGGC	0.0356
GTTAGTTA	-0.00799
GGGGCCAC	0.0218
ACTAAAAG	0.108
CAATGCAG	0.126
ATCTGCCC	-0.16
ACGTACGG	-0.189
CTGCCAAC	-0.054
ACTCGGTG	-0.0742
CCAGAGGA	0.0447
AAGTCCTC	-0.15
GAGCTGGA	0.0359
ATTGATCC	0.0469
CTGTTCCC	-0.0535
ACGGTCAG	-0.0174
AACGTTTG	-0.128
AGGGAGCG	0.0829
AGACTATC	-0.0907
CCCCGCAG	0.266
ACCGACTG	0.0794
GCAAAGTA	0.0098
ATCGTACG	-0.196
AAACGGAT	0.0305
AGGTAACG	-0.0197
ACAAGTAT	-0.202
